Measurements collected from several papers.
Each line is one published result; not all experiments were run side by side. “And” joins repeats or separate records; there may be more than shown. ± marks the error that the study gave.
TOP2A: DNA topoisomerase 2-alpha (TOP2A, Homo sapiens, UniProt P11388)
UCHL1: Ubiquitin carboxyl-terminal hydrolase isozyme L1 (UCHL1, Homo sapiens, UniProt P09936)
Voltage-dependent P/Q-type calcium channel subunit alpha-1A: Voltage-dependent P/Q-type calcium channel subunit alpha-1A (Homo sapiens, UniProt O00555)
ADRA2C: Alpha-2C adrenergic receptor (ADRA2C, Homo sapiens, UniProt P18825)
PLK1: Serine/threonine-protein kinase PLK1 (PLK1, Homo sapiens, UniProt P53350)
T1: G-quadruplex DNA (Homo sapiens); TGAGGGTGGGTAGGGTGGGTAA
T2: RNA aptamer del50, 5'-triphosphate, 2',3'-cyclic phosphate; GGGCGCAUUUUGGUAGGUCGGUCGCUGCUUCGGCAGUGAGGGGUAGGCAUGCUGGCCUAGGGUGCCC

O=c1nc(SCc2cc(F)cc(C(F)(F)F)c2)nc(SCc2ccc3sccc3c2)[nH]1 gave a linear DNA of 4.16% (TOP2A; DNA cleavage; 125 µM, replicate 1).
CCCCNC(=O)C(C#N)=Cc1ccncc1 has a labelling of 14.7% (UCHL1; covalent, intact protein LC-MS; 12.5 µM).
CN1CCN(CCCNc2nc(-c3cccc(-c4nc(NCCCN5CCN(C)CC5)c5ccccc5n4)n3)nc3ccccc23)CC1 has an IC50 of 272 nM (T1, G-quadruplex DNA (Homo sapiens); thiazole orange displacement, competitor, FID; 0.25 µM DNA, pH 7.4, 25 °C, KCl 100 mM, together with: thiazole orange 0.50 µM).
CC(C)[C@H](NC(=O)c1cc(-c2cnn3cc(-c4ccc(OCCN5CCCCC5)cc4)cnc23)cs1)C(F)(F)F has a relative inhibition of 0.0341 (TLK2 (Homo sapiens, UniProt Q86UE8); radiometric kinase; 15 nM; reference: TLK2 over ULK1).
CCCCCCCCCCCCNC(=S)NCCCC[C@H](NS(C)(=O)=O)C(=O)N[C@@H](C)C(=O)N[C@@H](CCCNC(=N)N)C(N)=O has a k2 of 0.1 ± 0.01 min⁻¹ (SIRT2 (Homo sapiens, UniProt Q8IXJ6); enzyme activity, slow-binding inhibitor; slow binding mechanism B, together with: myristoylated peptide substrate).
Cc1nc(CSc2nc(SCc3ccc(C(C)C)cc3)nc(=O)[nH]2)cs1: “mean decatenated DNA” 26.8% (TOP2B (Homo sapiens, UniProt Q02880); decatenation; 31.25 µM).
With Cc1cc(-c2ccnc3[nH]cc(F)c23)cc(F)c1[C@@]1(O)[C@H](C)CN(C(=O)CN)C[C@@H]1C the inhibition was 91.7% (PIK3C3 (Homo sapiens, UniProt Q8NEB9); ATP probe binding, KiNativ, item: ATP site; HEK293T cell lysate; 10 µM).
O=C(O)C1=CCNCC1 gave a current density of -0.03 pA/pF and -0.02 pA/pF and -0.13 pA/pF and -0.04 pA/pF and 0 pA/pF and 0.02 pA/pF (BEST1 (Homo sapiens, UniProt O76090); whole-cell patch clamp; HEK293 transiently expressing channel; concentration not given, membrane potential 0 mV).
CNCCCC12CCC(c3ccccc31)c1ccccc12 gave an inhibition of 79% (Voltage-dependent P/Q-type calcium channel subunit alpha-1A; ion current, antagonist; HEK293; 30 µM).
For Nc1nc2c(ncn2[C@@H]2O[C@H](COP(=O)(O)O)[C@@H](O)[C@H]2O)c(=O)[nH]1, the reaction rate was 0.817 s⁻¹ and -1.43 s⁻¹ and -0.0109 s⁻¹ (GUK1 (Homo sapiens, UniProt Q16774, S37A); enzyme activity, NADH-coupled; 125 µM).
For NC(=O)c1ccc[n+]([C@@H]2O[C@H](COP(=O)([O-])OP(=O)(O)OC[C@H]3O[C@@H](n4cnc5c(NCCNC(=O)CCCCCNC(=O)CCCCCNC(=O)CCCC[C@@H]6SC[C@@H]7NC(=O)N[C@@H]76)ncnc54)[C@H](O)[C@@H]3O)[C@@H](O)[C@H]2O)c1, the apparent Km was 8 µM (PARP3 (Homo sapiens, UniProt Q9Y6F1); substrate, DELFIA auto-modification).
Nc1ncnc2c1ncn2[C@@H]1O[C@H](COP(=O)(O)OP(=O)(O)OP(=O)(O)O)[C@@H](O)[C@H]1O has a hydrolysis rate of 0.00139 s⁻¹ (Acyl-coenzyme A oxidase acox-1.1 (acox-1.1, Caenorhabditis elegans, UniProt O62140); substrate, HPLC; 50 µM, together with: lauroyl-CoA and acyl-CoA oxidase).
For N#CC(=Cc1ccccc1Cl)C(=O)Nc1ccc2c(c1)OCCO2, the labelling was 34.4% (UCHL1; covalent, intact protein LC-MS; 12.5 µM).
Cc1cc(Oc2ncccc2CN2CCN(Cc3ccccc3Cl)CC2)ccc1-c1c(C)c(=O)[nH]c(=O)n1C has a selectivity ratio of 3 (ADRA2C; binding, radioligand binding; together with: [3H]rauwolscine; reference: Ki alpha2B over Ki alpha2C).
C=CC(=O)N1CCC(COCC(=O)N2CCN(c3nc(-c4cnc(N)nc4C(F)F)nc(N4CCOC[C@@H]4C)n3)CC2)CC1 gave a remaining binding of 4.5% (PIK3CA (Homo sapiens, UniProt P42336, Q546K); KINOMEscan; 1 µM).
The labelling of CC(C)Cc1nnc(NC(=O)CCl)s1 is reported as 24.1% (UCHL1; covalent, intact protein LC-MS; 12.5 µM).
With COc1ccc(-c2cc(OCC(=O)N(C)Cc3cccnc3C)nc(-n3nc(C)cc3C)n2)cc1 the selectivity ratio was > 200 fold (ERAP2 (Homo sapiens, UniProt Q6P179); together with: Leu-AMC substrate; reference: IRAP over ERAP2).
Cc1cc(Oc2ncccc2CN2CCN(c3cccc(C)c3C)CC2)ccc1-c1c(C)c(=O)[nH]c(=O)n1C gave a selectivity ratio of 7 (ADRA2C; binding, radioligand binding; together with: [3H]rauwolscine; reference: Ki alpha2A over Ki alpha2C).
For O=C(O)c1ccc(Nc2ncc3c(n2)-c2ccc(Cl)cc2C(c2c(F)cccc2F)=NC3)cc1, the remaining activity was 101% (human KIT D816V; inhibitor, biochemical kinase; 1 µM).
CC(NC(=O)CCCc1ccc2ccc3cccc4ccc1c2c34)C(=O)NO (centres unmarked) has a TΔS of 6 kcal/mol (HDAC8 (Homo sapiens, UniProt Q9BY41); ITC; triethanolamine buffer; pH 7.5).
NCCCS(=O)(=O)O gave a fraction bound of 0.000318 (SLC6A6 (Homo sapiens, UniProt P31641, Y138A); binding, microscale thermophoresis; 35.1 nM, fitted curve; higher = more binding).
For COc1ccc(C=C(C#N)C(=O)Nc2ccccc2C)cc1O, the labelling was 10.8% (UCHL1; covalent, intact protein LC-MS; 12.5 µM).
The binding stoichiometry of CC(=O)N[C@@H](Cc1c[nH]c2ccccc12)C(=O)N[C@@H](CC(=O)O)C(=O)N1CCC[C@H]1C(=O)N1CCC[C@H]1C(=O)N[C@@H](CC(C)C)C(=O)N[C@@H](Cc1c[nH]cn1)C(=O)N[C@@H](CO)C(=O)N[C@H](C(=O)N[C@@H](C)C(N)=O)[C@@H](C)OP(=O)(O)O is reported as 0.99 (PLK1; polo-box domain binding, isothermal titration calorimetry; concentration not given, 25 °C).
Under “plasma membrane localization”, CC(=C/C(=O)O)/C=C/C=C(\C)C1C=C2C(C)(C)CCCC2(C)O1 (centres unmarked) is recorded as 0.98 (Rhodopsin (RHO, Homo sapiens, UniProt P08100, E181K); immunostaining, item: opsin; COS-7 transfected; 50.00 µM, unit not given; reference: surface over total stained cells).
For Cc1ccc(Sc2ccc(NC(=O)CCl)cc2)cc1C, the labelling was 12.9% (UCHL1; covalent, intact protein LC-MS; 12.5 µM).
The remaining activity of CCCOc1ccc(NS(=O)(=O)c2cc(Cl)cc(Cl)c2O)cc1F is reported as 148% (malate dehydrogenase; enzyme activity, inhibitor; 200 µM, pH 7.0, 1% DMSO, aggregation counter-screen).
CC(=O)c1ccc(Oc2c(F)c(F)nc(N3CCCCC3)c2F)cc1 has a labelling of 2.1% (UCHL1; covalent, intact protein LC-MS; 12.5 µM).
For Nc1nc2c(ncn2[C@@H]2O[C@H](COP(=O)(O)OP(=O)(O)OP(=O)(O)O)[C@@H](O)[C@H]2O)c(=O)[nH]1, the Kd was 10.5 nM (T2, RNA aptamer del50, 5'-triphosphate, 2',3'-cyclic phosphate; ITC).
C#CCCC1(CC[C@H](NC(=O)NCCCCCCNC(=O)NCCNC(=O)COc2cccc([C@@H](CCc3ccc(OC)c(OC)c3)OC(=O)[C@@H]3CCCCN3C(=O)C(=O)C(C)(C)CC)c2)C(N)=O)N=N1.O=C(O)C(F)(F)F — result for “normalized labeling ratio”: 2.2 (FKBP1A (Homo sapiens, UniProt P62942); photoaffinity labeling, in-gel fluorescence, item: Alexa Fluor 647 click label; 0.4 µM, UV irradiation 365 nm; reference: probe over FKBP12 signal, higher = more labeling).
Under “log2 fold change”, Oc1ccccc1-c1n[nH]cc1-c1ccnc2ccccc12 is recorded as -0.17 (Histidine protein kinase NIK1 (NIK1, Candida albicans, UniProt Q5A599); kinase binding, MIB/MS competition; Candida albicans lysate; 10 µM; reference: DMSO, negative = stronger binding).
For CCCN1CCCC[C@H]1C(=O)Nc1c(C)cccc1C, the IC30 was > 30000 nM (Voltage-dependent P/Q-type calcium channel subunit alpha-1A; ion current, antagonist, automated patch clamp).
Cc1cc(Oc2ncccc2CN2CCN(c3cc(Cl)cc(Cl)c3)CC2)ccc1-c1c(C)c(=O)[nH]c(=O)n1C has a selectivity ratio of 3 (ADRA2C; binding, radioligand binding; together with: [3H]rauwolscine; reference: Ki alpha2A over Ki alpha2C).
For CC1(C)CC2(C)OC(=O)NC2(C)c2ccccc21 (centres unmarked), “log fold enrichment” read 0.0465 (Leucine-rich repeat serine/threonine-protein kinase 2, WD40 domain (LRRK2, Homo sapiens, UniProt Q5S007); binding, affinity selection mass spectrometry; reference: other proteins in batch).
COc1ccc2c3c1O[C@H]1C[C@@H](O)C=C[C@@]31CCN(C)C2 gave an inhibition of -3% (Voltage-dependent P/Q-type calcium channel subunit alpha-1A; ion current, antagonist; HEK293; 10 µM).
For Nc1ncnc2c1ncn2[C@@H]1O[C@H](COP(=O)(O)OP(=O)(O)O)[C@@H](O)[C@H]1O, the ΔH was -0.265 kcal/mol (GUK1 (Homo sapiens, UniProt Q16774); binding, isothermal titration calorimetry; molar ratio 2.388, fitted curve).
Cc1ccc(NC(=O)N2CCN(C(=O)C(C)Cl)CC2)cc1Cl (centres unmarked) has a labelling of 13.3% (UCHL1; covalent, intact protein LC-MS; 12.5 µM).
With O=c1nc(SCc2cc(F)cc(C(F)(F)F)c2)nc(SCc2ccc3nc(Cl)ccc3c2)[nH]1 the linear DNA was 0% (TOP2A; DNA cleavage; 31.25 µM, replicate 2).
N[C@@H](Cc1ccc(O)c(O)c1)C(=O)O gave an IC30 of > 30000 nM (Voltage-dependent P/Q-type calcium channel subunit alpha-1A; ion current, antagonist, automated patch clamp).
The median current of N[C@@H](CCC(=O)O)C(=O)O is reported as 0.6 µA (glc-2 (Caenorhabditis elegans, UniProt Q17328, R340A/R342A/S341A/T283S); two-electrode voltage clamp; Xenopus laevis oocytes).
C=C1C(=O)O[C@@H]2C[C@@]3(C)CCCC(=C)[C@@H]3C[C@H]12 has an activation of 1 fold (Nuclear receptor subfamily 1 group I member 3 (Homo sapiens, UniProt Q14994); reporter gene, Gal4 hybrid reporter; 10 µM; reference: vehicle).
With CC[C@@H]1[C@H](F)C(=O)N[C@@H]1COc1nccc2cc(C(N)=O)c(OC)cc12 the inhibition was -0.3% (PLK1; ATP-site probe binding, ActivX profiling; THP-1 cell lysate; 0.01 mM, Lys2 site).
C[C@H](NCc1ccc(OCc2ccccc2F)cc1)C(N)=O has an inhibition of 13% (Voltage-dependent P/Q-type calcium channel subunit alpha-1A; ion current, antagonist; HEK293; 3 µM).
Cc1cc(F)c(NS(=O)(=O)c2cc(Cl)cc(Cl)c2O)cc1[N+](=O)[O-] gave a remaining activity of 78% (malate dehydrogenase; enzyme activity, inhibitor; 200 µM, pH 7.0, 1% DMSO, aggregation counter-screen).
CCS(=O)(=O)N1CC(CC#N)(n2cc(-c3ncnc4[nH]ccc34)cn2)C1: “change in binding constant” 3.1% (ORM1 (Homo sapiens, UniProt P02763); together with: Zn^2+).
CCCN(CCC)CCc1cccc2c1CC(=O)N2 gave an inhibition of 5% (Voltage-dependent P/Q-type calcium channel subunit alpha-1A; ion current, antagonist; HEK293; 10 µM).
N#CC(=Cc1cccnc1)C(=O)Nc1ccc(F)cc1 gave a labelling of 23.5% (UCHL1; covalent, intact protein LC-MS; 12.5 µM).
COC(=O)C1CC(C(NS(=O)(=O)c2cccc(Cl)c2O)C(=O)OC)C1 (centres unmarked) gave a remaining activity of 101% (malate dehydrogenase; enzyme activity, inhibitor; 200 µM, pH 7.0, 1% DMSO, aggregation counter-screen).

For quick reference, copied from above:
CC(=O)c1ccc(Oc2c(F)c(F)nc(N3CCCCC3)c2F)cc1 has a labelling of 2.1% (UCHL1; covalent, intact protein LC-MS; 12.5 µM).
O=c1nc(SCc2cc(F)cc(C(F)(F)F)c2)nc(SCc2ccc3sccc3c2)[nH]1 gave a linear DNA of 4.16% (TOP2A; DNA cleavage; 125 µM, replicate 1).
Under “plasma membrane localization”, CC(=C/C(=O)O)/C=C/C=C(\C)C1C=C2C(C)(C)CCCC2(C)O1 (centres unmarked) is recorded as 0.98 (Rhodopsin (RHO, Homo sapiens, UniProt P08100, E181K); immunostaining, item: opsin; COS-7 transfected; 50.00 µM, unit not given; reference: surface over total stained cells).
CNCCCC12CCC(c3ccccc31)c1ccccc12 gave an inhibition of 79% (Voltage-dependent P/Q-type calcium channel subunit alpha-1A; ion current, antagonist; HEK293; 30 µM).
Cc1cc(Oc2ncccc2CN2CCN(c3cccc(C)c3C)CC2)ccc1-c1c(C)c(=O)[nH]c(=O)n1C gave a selectivity ratio of 7 (ADRA2C; binding, radioligand binding; together with: [3H]rauwolscine; reference: Ki alpha2A over Ki alpha2C).
CCCN(CCC)CCc1cccc2c1CC(=O)N2 gave an inhibition of 5% (Voltage-dependent P/Q-type calcium channel subunit alpha-1A; ion current, antagonist; HEK293; 10 µM).
